Experimental data gathered from unrelated publications.
Each numbered part is a random draw from the data of one study; scales do not carry over between parts.
Sequence of UniProt P14921 (whole entry, unmodified, looked up): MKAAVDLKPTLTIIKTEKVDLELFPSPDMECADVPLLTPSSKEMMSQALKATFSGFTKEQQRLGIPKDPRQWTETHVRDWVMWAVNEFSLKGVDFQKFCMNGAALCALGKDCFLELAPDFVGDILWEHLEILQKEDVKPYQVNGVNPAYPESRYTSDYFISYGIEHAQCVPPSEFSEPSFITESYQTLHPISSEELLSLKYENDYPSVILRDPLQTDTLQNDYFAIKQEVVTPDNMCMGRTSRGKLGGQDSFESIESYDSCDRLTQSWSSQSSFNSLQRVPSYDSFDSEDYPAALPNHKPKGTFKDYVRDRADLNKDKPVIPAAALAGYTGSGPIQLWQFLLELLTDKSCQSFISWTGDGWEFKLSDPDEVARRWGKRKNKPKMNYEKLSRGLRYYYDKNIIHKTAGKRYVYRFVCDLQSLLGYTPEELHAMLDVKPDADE
Sequence of UniProt Q9Y261 (142-269, looked up): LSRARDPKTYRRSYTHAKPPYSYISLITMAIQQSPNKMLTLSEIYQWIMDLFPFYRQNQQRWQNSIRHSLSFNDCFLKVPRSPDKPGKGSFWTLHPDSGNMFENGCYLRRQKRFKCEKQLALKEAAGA

Set 1
Target: Interferon regulatory factor 7, full length, phosphomimetic (IRF7, Homo sapiens, UniProt Q92985, residues 1-503, S471D/S472D/S475D/S476D/S477D/S483D/S484D/S487D)
Method: protein-binding microarray
Form: double-stranded DNA, one strand shown
Matrix: in vitro
Tested at: 2200 nM top
Notes: 60-bp whole probe
Together with: salmon DNA 0.4 mg/ml
Reference: random background probes
Direction: higher = stronger binding
Construct (chain): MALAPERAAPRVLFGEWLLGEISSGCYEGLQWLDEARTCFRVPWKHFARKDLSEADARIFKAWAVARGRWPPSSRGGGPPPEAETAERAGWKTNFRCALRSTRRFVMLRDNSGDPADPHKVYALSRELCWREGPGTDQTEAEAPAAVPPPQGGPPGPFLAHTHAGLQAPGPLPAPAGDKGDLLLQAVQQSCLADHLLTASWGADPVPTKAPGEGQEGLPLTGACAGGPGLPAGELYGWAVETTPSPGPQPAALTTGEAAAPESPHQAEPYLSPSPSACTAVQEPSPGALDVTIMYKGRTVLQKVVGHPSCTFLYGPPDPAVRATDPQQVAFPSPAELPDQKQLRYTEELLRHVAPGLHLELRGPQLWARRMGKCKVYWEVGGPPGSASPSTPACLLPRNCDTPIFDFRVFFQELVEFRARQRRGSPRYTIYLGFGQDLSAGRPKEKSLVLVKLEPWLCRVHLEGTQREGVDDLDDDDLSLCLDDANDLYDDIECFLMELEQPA
`GCCTAGCACTTAGGACTGGGGTATTGGTTAGTGCTAGTCTTGATTCGCTTGACGCTGCTG` — result for “fitted relative affinity”: -0.261 z-score.
Under “fitted relative affinity”, `GCCTAGCACACCCATTGAGATTTTCATTATGTGCTAGTCTTGATTCGCTTGACGCTGCTG` is recorded as 0.814 z-score.
Under “fitted relative affinity”, `GCCTAGCACAACGATATCGGGTTTCGAGACGTGCTAGTCTTGATTCGCTTGACGCTGCTG` is recorded as 1.83 z-score.

Further values, each from its own experiment
F2 mature alpha-thrombin: Prothrombin, mature alpha-thrombin (F2, Homo sapiens, UniProt P00734)
For `AAUACGG`, the 7-mer Z-score was 0.423 (PABPC1L2, full length, GST fusion (mouse, UniProt A0ABA7IW68); RNAcompete; RNA, in vitro; 20 nM, 7-mer, probes averaged, single round; reference: mean of 7-mers, higher = stronger binding).
With `ATACTGAC` the E-score was 0.343 (Hepatocyte nuclear factor 3-beta, forkhead domain (FOXA2, Homo sapiens, UniProt Q9Y261, residues 142-269); protein-binding microarray; double-stranded DNA, one strand shown, in vitro; not given, k-mer, scored over probes, only values ≥0.25; higher = stronger binding).
For `PhoQ, residues 284 288 289 292 302 303 AGHLVA`, the fold induction was 1.09 (PhoP, residues 12 14 15 18 19 NYFTV (Escherichia coli, UniProt P23836); Sort-seq, refers to: YFP reporter; E. coli; PhoQ-PhoP variant library, together with: 10 µM Mg2+; reference: high Mg2+ state, higher = stronger signaling).
Under “mean fluorescence intensity”, `GGTTGGTGTGGTTGG (2'F-ANA at 2 8 10 14)` is recorded as 105 a.u. (F2 mature alpha-thrombin; aptamer microarray, sandwich; DNA with 2'F-ANA, in vitro; 200 nM, whole 15-mer aptamer, many near background, together with: Cy3 exosite-II aptamer, 400 nM; higher = stronger binding).
With `CTTTAGCA` the E-score was -0.207 (Histone acetyltransferase KAT6A, both winged helices, GST fusion (KAT6A, Homo sapiens, UniProt Q92794, residues 1-181); protein binding microarray; double-stranded DNA, one strand shown, in vitro; not given, 8-mer, flanks averaged, mean of 2 arrays, mostly near background; reference: not given, higher = stronger binding).
`GGTTGGTGTGGTTGG (2'F-ANA at 6 7 9 11)`: “mean fluorescence intensity” 360 a.u. (F2 mature alpha-thrombin; aptamer microarray, sandwich; DNA with 2'F-ANA, in vitro; 200 nM, whole 15-mer aptamer, many near background, together with: Cy3 exosite-II aptamer, 400 nM; higher = stronger binding).
`CGGATGCC` has an E-score of 0.288 (Protein C-ets-1 (ETS1, Homo sapiens, UniProt P14921, residues 1-441, Y397A, full length assumed); protein-binding microarray; double-stranded DNA, one strand shown, in vitro; not given, k-mer, scored over probes, only values ≥0.25; higher = stronger binding).

Repeated from above (set 1):
Under “fitted relative affinity”, `GCCTAGCACAACGATATCGGGTTTCGAGACGTGCTAGTCTTGATTCGCTTGACGCTGCTG` is recorded as 1.83 z-score.
